Results pooled from the literature.
Protocols differ between the studies behind these lines.
Sequence of UniProt P17106 (whole entry, looked up): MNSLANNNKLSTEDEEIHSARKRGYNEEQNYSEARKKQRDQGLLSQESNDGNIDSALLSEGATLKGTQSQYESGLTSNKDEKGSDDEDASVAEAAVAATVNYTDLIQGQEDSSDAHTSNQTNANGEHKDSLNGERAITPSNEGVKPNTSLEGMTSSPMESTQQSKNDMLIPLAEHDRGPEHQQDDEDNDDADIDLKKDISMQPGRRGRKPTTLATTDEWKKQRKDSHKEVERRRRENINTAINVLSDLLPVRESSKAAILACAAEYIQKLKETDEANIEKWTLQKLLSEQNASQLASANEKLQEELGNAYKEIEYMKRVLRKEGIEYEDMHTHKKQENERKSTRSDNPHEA
Sequence of UniProt Q14653 (whole entry, unmodified, looked up): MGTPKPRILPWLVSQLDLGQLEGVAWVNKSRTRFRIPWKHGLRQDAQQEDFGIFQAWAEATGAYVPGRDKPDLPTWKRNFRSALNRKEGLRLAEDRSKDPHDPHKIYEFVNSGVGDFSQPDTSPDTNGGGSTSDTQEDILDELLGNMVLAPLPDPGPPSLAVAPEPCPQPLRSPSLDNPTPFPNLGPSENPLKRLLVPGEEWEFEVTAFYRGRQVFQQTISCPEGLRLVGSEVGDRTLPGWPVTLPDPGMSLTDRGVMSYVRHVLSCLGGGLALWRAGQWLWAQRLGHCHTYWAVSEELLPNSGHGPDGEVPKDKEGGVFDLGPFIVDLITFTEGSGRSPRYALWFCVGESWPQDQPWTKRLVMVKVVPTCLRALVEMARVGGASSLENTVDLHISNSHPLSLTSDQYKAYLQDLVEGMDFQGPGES
Sequence of UniProt Q92985 (whole entry, unmodified, looked up): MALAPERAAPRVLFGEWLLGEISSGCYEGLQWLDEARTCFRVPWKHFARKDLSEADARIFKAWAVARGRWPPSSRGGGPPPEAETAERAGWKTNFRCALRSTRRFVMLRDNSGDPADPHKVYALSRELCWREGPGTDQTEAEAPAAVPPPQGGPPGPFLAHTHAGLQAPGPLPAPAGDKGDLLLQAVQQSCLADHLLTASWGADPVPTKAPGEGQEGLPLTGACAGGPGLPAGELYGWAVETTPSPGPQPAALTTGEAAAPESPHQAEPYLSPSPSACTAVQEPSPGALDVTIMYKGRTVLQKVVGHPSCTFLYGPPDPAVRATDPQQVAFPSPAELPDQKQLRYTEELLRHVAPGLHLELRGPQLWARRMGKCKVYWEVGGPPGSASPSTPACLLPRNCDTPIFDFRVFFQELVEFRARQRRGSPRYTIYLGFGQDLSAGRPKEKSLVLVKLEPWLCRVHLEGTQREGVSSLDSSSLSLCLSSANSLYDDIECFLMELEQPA
Sequence of UniProt P07270 (whole entry, looked up): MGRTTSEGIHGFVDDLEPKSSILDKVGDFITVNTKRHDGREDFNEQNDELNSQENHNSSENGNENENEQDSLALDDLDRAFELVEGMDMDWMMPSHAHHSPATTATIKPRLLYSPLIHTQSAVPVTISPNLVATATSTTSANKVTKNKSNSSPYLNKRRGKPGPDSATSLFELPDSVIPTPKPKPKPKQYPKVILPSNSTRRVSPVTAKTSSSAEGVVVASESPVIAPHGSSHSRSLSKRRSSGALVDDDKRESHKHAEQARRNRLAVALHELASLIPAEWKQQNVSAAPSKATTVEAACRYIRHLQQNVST

Molecule | target | assay | test system | conditions | how to read | endpoint | result
GCCTAGCACTTAGATCTCAGTCTGGATTAGTGCTAGGTCTTGATTCGCTTGACGCTGCTG | Interferon regulatory factor 3, full length, phosphomimetic (IRF3, Homo sapiens, UniProt Q14653, residues 1-427, S386D/S396D/S398D/S402D/T404D/S405D) | protein-binding microarray | double-stranded DNA, one strand shown, in vitro | 2540 nM top, 60-bp whole probe, together with: salmon DNA 0.4 mg/ml | relative to: random background probes, higher = stronger binding | fitted relative affinity | 0.17 z-score
AGAATAGA | Sal-like protein 4, full length isoform B (SALL4, Homo sapiens, UniProt Q9UJQ4-2, residues 1-616) | universal PBM | double-stranded DNA, one strand shown, in vitro | not given, 8-mer, flanks averaged, mean of replicates | higher = stronger binding | E-score | 0.152
PhoQ, residues 284 288 289 292 302 303 TTSMTC | PhoP, residues 12 14 15 18 19 FWNTL (Escherichia coli, UniProt P23836) | Sort-seq, measured: YFP reporter | E. coli | PhoQ-PhoP variant library, together with: 10 µM Mg2+ | relative to: high Mg2+ state, higher = stronger signaling | fold induction | 1.58
GCCTAGCACTGATTGGTTGAACATGAACTGTGCTAGGTCTTGATTCGCTTGACGCTGCTG | Interferon regulatory factor 7, full length, phosphomimetic (IRF7, Homo sapiens, UniProt Q92985, residues 1-503, S471D/S472D/S475D/S476D/S477D/S483D/S484D/S487D) | protein-binding microarray | double-stranded DNA, one strand shown, in vitro | 2200 nM top, 60-bp whole probe, together with: salmon DNA 0.4 mg/ml | relative to: random background probes, higher = stronger binding | fitted relative affinity | 0.331 z-score
GGTTGGTGTGGTTGG (2'F-ANA at 4 5 6 10 11 14 15) | Prothrombin, mature alpha-thrombin (F2, Homo sapiens, UniProt P00734) | aptamer microarray, sandwich | DNA with 2'F-ANA, in vitro | 200 nM, whole 15-mer aptamer, many near background, together with: Cy3 exosite-II aptamer, 400 nM | higher = stronger binding | mean fluorescence intensity | 52.5 a.u.
GAAAGTGC | Histone acetyltransferase KAT6A, winged helix 2, GST fusion (KAT6A, Homo sapiens, UniProt Q92794, residues 85-181) | protein binding microarray | double-stranded DNA, one strand shown, in vitro | not given, 8-mer, flanks averaged, mean of 2 arrays, mostly near background | relative to: not given, higher = stronger binding | E-score | -0.107
GCGTTGCAGATCGCTCAGCTGACTTTGAAGCATCGCGTCTTGATTCGCTTGACGCTGCTG | Phosphate system positive regulatory protein PHO4, full length, GST-tagged (PHO4, Saccharomyces cerevisiae, UniProt P07270, residues 1-312) | competition protein-binding microarray | double-stranded DNA, one strand shown, in vitro | 2 µM, whole 60-bp probe, lowest competitor level, together with: Cbf1 competitor, 0.05 µM | higher = stronger binding | fluorescence intensity | 2600 a.u.
CGTGTTTC | Histone acetyltransferase KAT6A, winged helix 1, GST fusion (KAT6A, Homo sapiens, UniProt Q92794, residues 1-85) | protein binding microarray | double-stranded DNA, one strand shown, in vitro | not given, 8-mer, flanks averaged, mean of 2 arrays, mostly near background | relative to: not given, higher = stronger binding | E-score | 0.102
GAACTTGGTGTGATTGTCGTCACCTTGCCATCCTAGGTCTTGATTCGCTTGACGCTGCTG | Centromere-binding protein 1, full length, N-terminal tag (CBF1, Saccharomyces cerevisiae, UniProt P17106, residues 1-351) | protein-binding microarray | double-stranded DNA, one strand shown, in vitro | 0.8 µM, whole 60-bp probe, no competitor | higher = stronger binding | fluorescence intensity | 519 a.u.

For quick reference, copied from above:
Molecule | target | assay | test system | conditions | how to read | endpoint | result
AGAATAGA | Sal-like protein 4, full length isoform B (SALL4, Homo sapiens, UniProt Q9UJQ4-2, residues 1-616) | universal PBM | double-stranded DNA, one strand shown, in vitro | not given, 8-mer, flanks averaged, mean of replicates | higher = stronger binding | E-score | 0.152
